Measurements of several laboratories.
Lines come from different studies, so protocols differ. Numbers after ± are the reported error.

CC[C@H](C)C(=O)N1CCC(NC(=O)Nc2ccc(OC(F)(F)F)c(F)c2)CC1: “subjects with trichomoniasis TEAE” 0% (healthy volunteers; oral, 0.5 mg single dose).
With CSCC[C@@H]1NC(=O)[C@@H]2CSSC[C@H](NC(=O)[C@H](CO)NC(=O)[C@H](C)N)C(=O)N[C@@H](CCCNC(=N)N)C(=O)N[C@@H]([C@@H](C)O)C(=O)N3CCC[C@H]3C(=O)N[C@@H](CCCCN)C(=O)N[C@@H](CC(=O)O)C(=O)N[C@H]3CSSC[C@H](NC(=O)[C@H](CCCCN)NC(=O)[C@H](CCCNC(=N)N)NC(=O)[C@H](CC(N)=O)NC1=O)C(=O)N[C@@H](CCCCN)C(=O)N[C@H]1CSSC[C@H](NC(=O)[C@@H]4CCCN4C(=O)[C@H](CC(=O)O)NC(=O)[C@H](C)NC3=O)C(=O)N[C@@H](C)C(=O)N[C@@H](CCCCN)C(=O)N[C@@H](CCC(=O)O)C(=O)N[C@@H]([C@@H](C)O)C(=O)NCC(=O)N[C@@H](CSSC[C@@H](C(N)=O)NC(=O)[C@H](CCCNC(=N)N)NC(=O)[C@H](CC(N)=O)NC1=O)C(=O)N1CCC[C@H]1C(=O)N[C@@H](Cc1ccc(O)cc1)C(=O)NCC(=O)N[C@@H](CCCCN)C(=O)N2 the total protein was 4.76 g/dL (DA rat, pristane-induced arthritis, serum; subcutaneous, 0.1 mg/kg once weekly, 21 days).
CCOP(=O)(OCC)OCCCCOC(=O)C(C)c1ccc(CC(C)C)cc1 (centres unmarked): “rats with stomach ulcers” 14.3% (Fischer 344 rats, male; oral gavage, 1215 mg/kg daily, 7 days).
CSCC[C@H](NC(=O)CNC(=O)[C@H](CC(=O)O)NC(=O)[C@@H](NC(=O)[C@@H](NC(=O)[C@@H](NC(=O)CNC(=O)[C@H](CCC(N)=O)NC(=O)[C@H](CCSC)NC(=O)[C@H](CC(=O)O)NC(=O)[C@H](C)NC(=O)[C@H](C)NC(=O)[C@@H](NC(=O)[C@H](CO)NC(=O)[C@@H](N)CC(C)C)[C@@H](C)O)C(C)C)C(C)C)[C@@H](C)O)C(=O)N[C@@H](C)C(=O)N[C@@H](CO)C(=O)NCC(=O)N[C@@H](CC(C)C)C(=O)N[C@@H](CC(=O)O)C(=O)N[C@@H](CCCCN)C(=O)N[C@@H](CC(=O)O)C(=O)N[C@@H](Cc1ccc(O)cc1)C(=O)N[C@@H](CC(C)C)C(=O)N[C@@H](CCCCN)C(=O)N1CCC[C@H]1C(=O)N[C@@H](CC(=O)O)C(=O)N[C@@H](CC(=O)O)C(=O)O gave an AUC(0-t) of 2830 ng·h/mL (human, serum; intravenous, 3.33 mg/kg, patients, infusion).
For CC(C)[C@H]1NC(=O)C[C@H]2/C=C/CCSSC[C@@H](NC1=O)C(=O)N[C@H](Cc1cccc3ccccc13)C(=O)NCC(=O)O2, the AUC was 0.272 ng·h/mL (nude mouse, blood; oral, 12 mg/kg).
With CC[C@H](C)[C@H](NC(=O)[C@H](CCCCN)NC(=O)[C@H](Cc1ccccc1)NC(=O)[C@H]1CCC[C@@H]1NC(=O)[C@@H](N)CCCCN)C(=O)N[C@@H](C)CC(=O)N[C@@H](CCCCN)C(=O)N[C@@H](CCCCN)C(=O)N[C@H]1CCC[C@@H]1C(=O)N[C@H](C(=O)N[C@@H](CCCCN)C(=O)N[C@@H](CCCNC(=N)N)C(=O)N[C@H](CC(N)=O)Cc1ccccc1)C(C)C the helical rigidity was 27 ± 6% (circular dichroism; trifluoroethanol in water; relative to: 15% TFE over 100% TFE).
CC(C)[C@H](NC(=O)CNC(=O)[C@H](CCC(N)=O)NC(=O)[C@H](C)N)C(=O)O — result for “subjects with mild adverse events”: 16.7% (human; 30 mg/kg single dose).
Under “serum total CO2”, CN(C)C(CNC(=O)Nc1cc(C(F)(F)F)ccc1N1CCOCC1)c1ccncc1 (centres unmarked) is recorded as 12 mmol/L (mouse, serum; intraperitoneal, 360 mg/kg single dose).
CC(=CCC(O)C(C)=Cc1csc(C)n1)CC=CC(C)C(O)C(C)C(=O)C(C)(C)C(O)CC(=O)O (centres unmarked) has a Tmax of 3.17 ± 0.31 h (human, plasma; intravenous infusion, 8.5 mg/m2 KOS-1584, 3 h infusion, cycle 1).
CC[C@@H]1C[C@]1(NC(=O)[C@@H]1C[C@@]2(CN1C(=O)[C@@H](NC(=O)[C@@H](NC(=O)[C@@H]1CCCCN1C(C)C)C1CCCCC1)C(C)(C)C)C(C)(C)C21CCC1)C(=O)NS(=O)(=O)N1CCCC1 — result for “subjects with adverse event”: 0% (item: Diarrhea; healthy human; oral, 50 mg, together with: ritonavir 100 mg).
With CC(C)[C@@H]1NC(=O)[C@H](Cc2ccccc2)NC(=O)[C@H](Cc2ccc(O)cc2)NC(=O)CCSSC[C@@H](C(=O)N2CCC[C@H]2C(=O)N[C@H](CCCNC(=N)N)C(=O)NCC(N)=O)NC(=O)[C@H](CCC(N)=O)NC1=O the total protein was 6.9 ± 0.5 g/dL (Wistar rat, blood; intravenous, 100 µg/kg single dose, 72 h).
For CCCCCCCC(=O)OC[C@H](NC(=O)[C@H](CO)NC(=O)CN)C(=O)N[C@@H](Cc1ccccc1)C(=O)N[C@@H](CC(C)C)C(=O)N[C@@H](CO)C(=O)N1CCC[C@H]1C(=O)N[C@@H](CCC(=O)O)C(=O)N[C@@H](Cc1cnc[nH]1)C(=O)N[C@@H](CCC(N)=O)C(=O)N[C@@H](CCCNC(=N)N)C(=O)N[C@H](C(=O)N[C@@H](CCC(N)=O)C(=O)N[C@@H](CCC(N)=O)C(=O)N[C@@H](CCCNC(=N)N)C(=O)N[C@@H](CCCCN)C(=O)N[C@@H](CCC(=O)O)C(=O)N[C@@H](CO)C(=O)N[C@@H](CCCCN)C(=O)N[C@@H](CCCCN)C(=O)N1CCC[C@H]1C(=O)N1CCC[C@H]1C(=O)N[C@@H](C)C(=O)N[C@@H](CCCCN)C(=O)N[C@@H](CC(C)C)C(=O)N[C@@H](CCC(N)=O)C(=O)N1CCC[C@H]1C(=O)N[C@@H](CCCNC(=N)N)C(=O)O)C(C)C, “volume of distribution” read 0.079 ± 0.024 L/kg (human, both sexes, plasma; intravenous infusion, 3 µg/kg/h, 65 min infusion).
With CC[C@H](C)[C@H](NC(=O)[C@H](CCCCN)NC(=O)CNC(=O)[C@H](CC(C)C)NC(=O)[C@@H](NC(=O)[C@H](C)NC(=O)[C@H](CCCCN)NC(=O)CNC(=O)[C@H](C)NC(=O)CNC(=O)[C@H](CCCCN)NC(=O)[C@H](CCSC)NC(=O)[C@H](CCCCN)NC(=O)[C@@H](NC(=O)[C@H](Cc1c[nH]c2ccccc12)NC(=O)[C@H](CC(C)C)NC(=O)[C@H](CCCCN)NC(=O)[C@H](CCCCN)NC(=O)[C@H](CC(C)C)NC(=O)[C@@H](N)CC(C)C)[C@@H](C)O)C(C)C)C(=O)N[C@@H](CCCCN)C(=O)NCC(=O)N[C@@H](CC(C)C)C(=O)N[C@@H](CC(C)C)C(=O)O the Stern-Volmer constant was 1.86 ± 0.01 M⁻¹ (acrylamide quenching; POPE:DOPG 3:1 vesicles; 2 µM, 250 µM total lipid, together with: acrylamide).
With CCCC[C@H](NC(=O)[C@H](Cc1c[nH]c2ccccc12)NC(=O)CNC(=O)[C@H](Cc1ccc(O)cc1)NC(=O)[C@H](C)NC(=O)[C@H](CCC(=O)O)NC(=O)[C@H](Cc1c[nH]cn1)NC(=O)[C@H](Cc1c[nH]cn1)NC(=O)[C@H](Cc1c[nH]cn1)NC(=O)[C@H](Cc1c[nH]cn1)NC(=O)[C@H](Cc1c[nH]cn1)NC(=O)[C@H](Cc1c[nH]cn1)NC(=O)CN1CCN(CC(=O)O)CCN(CC(=O)O)CCN(CC(=O)O)CC1)C(=O)N[C@@H](CC(=O)O)C(=O)N[C@@H](Cc1ccccc1)C(N)=O the tumour-to-kidney ratio was 0.16 (MF1 nude mouse, male, CA20948 xenograft; intravenous, 0.2 µg, 4 h, 111In-labelled; relative to: tumour over kidney).
N#Cc1c(O)c(Cl)c(Cl)c(C#N)c1Cl: “rosuvastatin AUC(0-24 h)” 62.6 ng·h/mL (healthy human volunteers, plasma; oral, dose not given, geometric mean, together with: rosuvastatin).
With CC(C)C[C@@H](NC(=O)[C@@H](CCCNC(=N)N)NC(=O)[C@@H](Cc1c[nH]cn1)NC(=O)[C@@H](Cc1c[nH]c2ccccc12)NC(=O)[C@@H](Cc1c[nH]cn1)NC(=O)[C@@H](Cc1ccccc1)NC(=O)[C@H](NC(=O)[C@@H](Cc1ccc(O)cc1)NC(=O)CNC(=O)CNC(=O)CCOCCOCCOCCNC(=O)CN1CCN(CC(=O)O)CCN(CC(=O)O)CC1)[C@H](C)O)C(=O)N[C@H](CC(N)=O)C(=O)N1CCC[C@@H]1C(=O)O [gallium-68 labelled] the SUVmax was 2.95 SUV (PET; human, large right lung primary tumour).
COc1ccc(C)cc1NC(=O)OC1CC2CCCC(C1)N2Cc1ccc(CC[18F])cc1 (centres unmarked) gave a tracer uptake of 2.98 %ID/g (mouse, bone; 5 min, tumour-bearing).
For c1ccc(C2(CCNC3CCC4(SCCS4)c4ccccc43)CCOC3(CCCC3)C2)nc1 (centres unmarked), the AUC(0-24 h) was 59.7 ng·h/mL (mouse; intravenous, 0.3 mg/kg).
Under “duration of detectable level”, CC(C)C[C@H](NC(=O)[C@H](Cc1ccccc1)NC(=O)CNC(=O)C/C=C(\F)[C@@H](N)Cc1ccc(O)cc1)C(=O)O is recorded as 2 h (BALB/c mice, plasma; intravenous, 50 mg/kg).
CC[C@H](C)[C@H](NC(=O)[C@H](CCCCN)NC(=O)[C@@H](NC(=O)[C@H](CCC(N)=O)NC(=O)[C@H](CCCNC(=N)N)NC(=O)[C@@H](N)CC(=O)O)[C@@H](C)CC)C(=O)N[C@@H](Cc1c[nH]c2ccccc12)C(=O)N[C@@H](Cc1ccccc1)C(=O)N[C@@H](CCC(N)=O)C(=O)N[C@@H](CC(N)=O)C(=O)N[C@@H](CCCNC(=N)N)C(=O)N[C@@H](CCCNC(=N)N)C(=O)N[C@@H](CCSC)C(=O)N[C@@H](CCCCN)C(=O)N[C@@H](Cc1c[nH]c2ccccc12)C(=O)N[C@@H](CCCCN)C(=O)N[C@@H](CCCCN)C(=O)N[C@@H](CC(C)C)C(=O)N[C@@H](CC(=O)O)C(=O)N[C@@H](Cc1c[nH]c2ccccc12)C(=O)N[C@@H](CO)C(=O)N[C@@H](Cc1c[nH]c2ccccc12)C(=O)N[C@@H](CC(C)C)C(=O)O — result for locomotor activity: “no effect” (open field; 5XFAD transgenic mouse; intranasal, 0.1 mg/kg every 2 days, 30 days).
With COC(=O)C[C@](O)(CCCC(C)(C)OC(C)=O)C(=O)O[C@@H]1C(OC)=C[C@]23CCCN2CCc2cc4c(cc2[C@H]13)OCO4 the tissue concentration was 176 ng/mL (CD1 mouse, bone marrow; subcutaneous, 1 mg/kg, 0.5 h).
CN(C)c1ccc(/N=N/c2ccccc2)cc1 has a pKa of 3.2 (UV-vis pH titration; methanol/water 1:3 v/v).
With CN[C@](C)(C[18F])C(=O)O the tumour uptake was 4.9 ± 1 %ID/g (SCID mouse U87 xenograft; 15 min post injection).
With Cc1ccc(/C=C/C(=O)O)cc1-c1cc2c(cc1C)C(C)(C)CCC2(C)C the blood cholesterol was 87 ± 4.9 mg/dL (Sprague-Dawley rat, male; oral, 100 mg/kg, 2 h, sesame oil vehicle).
O=C(CN1CCN(c2cc3c(cc2F)c(=O)c(C(=O)O)cn3C2CC2)CC1)Nc1ccc(Cl)cc1 gave an AUC of 93200 ng·h/mL (mouse, plasma; intravenous, 1.25 mg/kg).
With C/C=C/C=C/C/C=C/CCCCCCCc1cccc(O)c1O the tissue concentration was 11600 ± 1140 ng/g (female Kunming mice tumour-bearing, kidneys; intravenous, 10 mg/kg, 2 h).
For COCC(=O)NCCSc1c(-c2ccc(Br)cc2)[nH]c2ccccc12, the t1/2 was 0.81 h (rat).
CCC(C)C(=O)OC1C2C3(C)CCC(OC4CC(OC)C(OC5OC(C)C(O)C(OC)C5O)C(C)O4)CC3CCC23OC32CCC(C(C)=O)C2(C)C1OC(C)=O (centres unmarked) gave a Papp A→B of 1.52 ×10⁻⁶ cm/s (Caco-2; 10 µM).
CCN(Cc1ccccc1)C(=O)CCc1nc(CN2CCN(C(=O)Cc3ccc(OC)c(OC)c3)CC2)no1 gave a concentration of less than 1.8 ng/g (rat, kidney; intravenous, 1 mg/kg, 30 min, single dose).

A few entries again:
For COCC(=O)NCCSc1c(-c2ccc(Br)cc2)[nH]c2ccccc12, the t1/2 was 0.81 h (rat).
CCC(C)C(=O)OC1C2C3(C)CCC(OC4CC(OC)C(OC5OC(C)C(O)C(OC)C5O)C(C)O4)CC3CCC23OC32CCC(C(C)=O)C2(C)C1OC(C)=O (centres unmarked) gave a Papp A→B of 1.52 ×10⁻⁶ cm/s (Caco-2; 10 µM).
